Results collected from several papers.
Lines come from different studies, so protocols differ. Several values in a cell are separate wells, animals, samples, runs or records. ± gives the spread as reported.
Eif4e: Eukaryotic translation initiation factor 4E (Eif4e, Mus musculus, UniProt P63073)
Chain of UniProt P63073 (whole entry, looked up): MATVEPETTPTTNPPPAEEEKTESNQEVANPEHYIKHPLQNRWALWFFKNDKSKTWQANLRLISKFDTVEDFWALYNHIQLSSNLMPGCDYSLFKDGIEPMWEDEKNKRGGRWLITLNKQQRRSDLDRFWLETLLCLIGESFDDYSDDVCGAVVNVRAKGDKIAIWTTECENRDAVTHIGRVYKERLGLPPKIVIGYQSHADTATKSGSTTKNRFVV
Ribonucleoside-diphosphate reductase large subunit: Ribonucleoside-diphosphate reductase large subunit (Homo sapiens, UniProt P23921)
Chain of UniProt P23921 (whole entry, looked up): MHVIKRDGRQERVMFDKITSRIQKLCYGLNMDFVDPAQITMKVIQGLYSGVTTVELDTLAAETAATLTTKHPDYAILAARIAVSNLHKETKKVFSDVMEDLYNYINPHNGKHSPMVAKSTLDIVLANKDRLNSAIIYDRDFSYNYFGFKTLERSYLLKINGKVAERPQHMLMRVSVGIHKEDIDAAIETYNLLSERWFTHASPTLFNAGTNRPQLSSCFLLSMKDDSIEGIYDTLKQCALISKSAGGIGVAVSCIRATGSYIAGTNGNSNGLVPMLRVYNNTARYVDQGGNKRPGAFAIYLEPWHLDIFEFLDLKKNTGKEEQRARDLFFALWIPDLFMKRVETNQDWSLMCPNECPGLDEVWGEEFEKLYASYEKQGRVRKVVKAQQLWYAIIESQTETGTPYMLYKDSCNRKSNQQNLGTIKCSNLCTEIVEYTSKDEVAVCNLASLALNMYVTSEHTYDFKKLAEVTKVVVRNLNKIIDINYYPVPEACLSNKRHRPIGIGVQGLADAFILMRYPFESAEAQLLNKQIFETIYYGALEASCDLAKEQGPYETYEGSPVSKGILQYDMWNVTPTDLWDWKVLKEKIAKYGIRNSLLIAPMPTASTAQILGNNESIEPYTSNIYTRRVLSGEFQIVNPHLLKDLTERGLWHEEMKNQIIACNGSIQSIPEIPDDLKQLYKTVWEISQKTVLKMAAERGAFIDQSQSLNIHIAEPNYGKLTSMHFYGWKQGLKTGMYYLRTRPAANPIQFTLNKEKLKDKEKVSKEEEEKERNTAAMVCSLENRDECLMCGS
Methyl-accepting chemotaxis protein Tlp3 sensing domain: Methyl-accepting chemotaxis protein Tlp3, sensing domain (Campylobacter jejuni, UniProt Q0P864)
BCL2L1: Bcl-2-like protein 1 (BCL2L1, Homo sapiens, UniProt Q07817)
Chain of UniProt Q07817 (whole entry, looked up): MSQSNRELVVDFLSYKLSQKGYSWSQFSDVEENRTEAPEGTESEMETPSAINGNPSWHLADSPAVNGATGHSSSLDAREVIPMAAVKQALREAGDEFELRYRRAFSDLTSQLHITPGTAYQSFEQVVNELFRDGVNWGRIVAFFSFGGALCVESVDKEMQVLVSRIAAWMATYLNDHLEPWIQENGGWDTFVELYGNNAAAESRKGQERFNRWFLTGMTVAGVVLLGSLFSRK
Chain of UniProt P0DMV8 (whole entry, looked up): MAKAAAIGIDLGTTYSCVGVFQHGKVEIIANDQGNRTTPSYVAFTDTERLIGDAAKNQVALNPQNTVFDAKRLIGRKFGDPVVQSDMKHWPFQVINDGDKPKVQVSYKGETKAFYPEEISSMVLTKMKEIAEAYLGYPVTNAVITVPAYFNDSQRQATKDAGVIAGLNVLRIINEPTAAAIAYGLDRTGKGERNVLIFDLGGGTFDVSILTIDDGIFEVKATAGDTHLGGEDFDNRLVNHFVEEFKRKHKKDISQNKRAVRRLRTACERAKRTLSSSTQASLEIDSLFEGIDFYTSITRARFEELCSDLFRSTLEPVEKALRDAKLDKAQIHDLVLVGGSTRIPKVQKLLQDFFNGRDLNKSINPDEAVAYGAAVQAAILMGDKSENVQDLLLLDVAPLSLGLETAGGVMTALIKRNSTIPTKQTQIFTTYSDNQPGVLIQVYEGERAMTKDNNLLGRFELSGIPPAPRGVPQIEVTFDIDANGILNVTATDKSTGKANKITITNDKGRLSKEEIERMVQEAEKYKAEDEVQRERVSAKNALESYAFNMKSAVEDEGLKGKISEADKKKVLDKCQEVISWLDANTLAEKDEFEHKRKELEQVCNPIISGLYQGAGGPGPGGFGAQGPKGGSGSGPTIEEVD
Chain of UniProt P42330 (whole entry, unmodified, looked up): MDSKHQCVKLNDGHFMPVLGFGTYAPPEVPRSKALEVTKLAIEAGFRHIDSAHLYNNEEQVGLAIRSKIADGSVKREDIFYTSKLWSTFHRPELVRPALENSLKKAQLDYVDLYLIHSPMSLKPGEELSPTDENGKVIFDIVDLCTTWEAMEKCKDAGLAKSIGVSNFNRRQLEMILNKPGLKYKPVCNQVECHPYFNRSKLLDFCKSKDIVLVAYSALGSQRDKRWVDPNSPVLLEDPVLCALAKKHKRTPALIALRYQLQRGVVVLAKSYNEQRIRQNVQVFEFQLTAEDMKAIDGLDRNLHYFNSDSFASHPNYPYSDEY
Chain of UniProt Q8JGN5 (whole entry, looked up): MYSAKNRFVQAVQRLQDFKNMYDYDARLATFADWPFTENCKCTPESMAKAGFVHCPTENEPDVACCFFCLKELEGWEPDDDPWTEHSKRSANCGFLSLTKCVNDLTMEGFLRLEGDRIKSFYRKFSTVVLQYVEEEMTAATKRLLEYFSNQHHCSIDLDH
Chain of UniProt P08684 (whole entry, unmodified, looked up): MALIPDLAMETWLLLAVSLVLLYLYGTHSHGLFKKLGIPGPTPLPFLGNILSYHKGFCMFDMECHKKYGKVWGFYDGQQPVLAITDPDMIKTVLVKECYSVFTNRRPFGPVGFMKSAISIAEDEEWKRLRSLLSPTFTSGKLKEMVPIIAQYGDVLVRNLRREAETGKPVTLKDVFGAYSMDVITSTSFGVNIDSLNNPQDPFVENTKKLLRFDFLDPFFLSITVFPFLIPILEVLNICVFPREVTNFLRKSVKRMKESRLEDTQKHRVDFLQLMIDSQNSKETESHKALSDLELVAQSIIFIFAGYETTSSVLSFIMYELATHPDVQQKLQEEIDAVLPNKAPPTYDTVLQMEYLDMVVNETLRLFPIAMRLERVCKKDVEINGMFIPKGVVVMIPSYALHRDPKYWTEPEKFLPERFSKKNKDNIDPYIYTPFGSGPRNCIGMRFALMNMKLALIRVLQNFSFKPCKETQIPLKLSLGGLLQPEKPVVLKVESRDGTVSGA
Chain of UniProt P06768 (whole entry, looked up): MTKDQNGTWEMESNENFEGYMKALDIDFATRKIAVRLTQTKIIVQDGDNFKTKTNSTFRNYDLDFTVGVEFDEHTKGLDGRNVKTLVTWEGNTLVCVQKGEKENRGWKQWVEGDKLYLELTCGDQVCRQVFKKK
Chain of UniProt P69905 (whole entry, looked up): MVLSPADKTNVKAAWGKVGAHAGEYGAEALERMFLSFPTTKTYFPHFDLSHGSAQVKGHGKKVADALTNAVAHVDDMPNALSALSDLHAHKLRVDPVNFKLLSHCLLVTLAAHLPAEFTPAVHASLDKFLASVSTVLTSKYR
Chain of UniProt O15530 (whole entry, looked up): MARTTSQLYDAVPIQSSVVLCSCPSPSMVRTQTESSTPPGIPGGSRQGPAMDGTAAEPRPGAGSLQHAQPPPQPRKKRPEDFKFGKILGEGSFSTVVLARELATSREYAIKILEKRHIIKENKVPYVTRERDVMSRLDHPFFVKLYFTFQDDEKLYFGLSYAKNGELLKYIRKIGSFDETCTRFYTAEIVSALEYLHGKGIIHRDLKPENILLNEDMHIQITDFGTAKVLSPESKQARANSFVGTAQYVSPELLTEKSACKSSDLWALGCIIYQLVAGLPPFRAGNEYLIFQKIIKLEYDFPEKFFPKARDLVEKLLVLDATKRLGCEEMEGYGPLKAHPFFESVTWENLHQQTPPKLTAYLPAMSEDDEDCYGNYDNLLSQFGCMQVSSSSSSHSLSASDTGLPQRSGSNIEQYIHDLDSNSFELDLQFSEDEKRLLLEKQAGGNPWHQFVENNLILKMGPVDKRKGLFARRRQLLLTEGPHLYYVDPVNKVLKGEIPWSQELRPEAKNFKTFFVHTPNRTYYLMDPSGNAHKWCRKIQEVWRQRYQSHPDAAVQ
Chain of UniProt P02769 (whole entry, looked up): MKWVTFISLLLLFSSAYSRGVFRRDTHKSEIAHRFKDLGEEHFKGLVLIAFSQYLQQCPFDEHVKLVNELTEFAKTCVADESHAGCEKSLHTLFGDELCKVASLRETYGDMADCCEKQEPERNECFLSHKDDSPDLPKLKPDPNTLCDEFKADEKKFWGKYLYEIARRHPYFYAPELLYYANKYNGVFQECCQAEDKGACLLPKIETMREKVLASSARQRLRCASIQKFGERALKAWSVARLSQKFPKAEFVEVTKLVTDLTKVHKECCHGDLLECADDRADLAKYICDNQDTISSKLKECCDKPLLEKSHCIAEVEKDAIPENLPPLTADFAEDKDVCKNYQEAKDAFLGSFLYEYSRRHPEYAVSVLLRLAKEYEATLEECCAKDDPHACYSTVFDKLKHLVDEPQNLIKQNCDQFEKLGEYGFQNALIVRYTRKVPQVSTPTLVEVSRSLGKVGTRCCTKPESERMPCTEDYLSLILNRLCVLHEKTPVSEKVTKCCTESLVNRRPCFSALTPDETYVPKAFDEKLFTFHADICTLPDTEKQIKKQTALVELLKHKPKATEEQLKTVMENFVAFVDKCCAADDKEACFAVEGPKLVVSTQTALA
Chain of UniProt P09769 (whole entry, looked up): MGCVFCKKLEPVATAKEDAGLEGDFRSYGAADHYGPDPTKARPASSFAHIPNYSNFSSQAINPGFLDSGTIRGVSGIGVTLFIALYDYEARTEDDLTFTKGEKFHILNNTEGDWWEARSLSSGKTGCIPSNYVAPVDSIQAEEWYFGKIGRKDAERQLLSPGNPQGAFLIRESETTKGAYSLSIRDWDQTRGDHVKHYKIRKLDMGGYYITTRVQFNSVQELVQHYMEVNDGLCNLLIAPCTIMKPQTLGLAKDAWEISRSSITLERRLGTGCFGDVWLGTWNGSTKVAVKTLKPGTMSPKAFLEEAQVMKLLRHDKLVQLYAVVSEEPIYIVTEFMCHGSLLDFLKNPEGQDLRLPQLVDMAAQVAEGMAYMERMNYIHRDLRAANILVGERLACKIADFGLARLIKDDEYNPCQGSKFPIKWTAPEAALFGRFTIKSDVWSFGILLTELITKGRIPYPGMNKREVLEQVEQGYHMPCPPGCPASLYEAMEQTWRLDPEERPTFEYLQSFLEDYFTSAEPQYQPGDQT

Molecule	target	test	test system	conditions	Kd
C[n+]1cccc2cc(C=NNC(=O)c3ccc4ccc5ccc(C(=O)NN=Cc6ccc7c(ccc[n+]7C)c6)nc5c4n3)ccc21	MYC promoter G4 DNA	binding, native ESI-MS	100 mM trimethylammonium acetate	1 mM KCl	0.21 µM
CCC[C@H](N)C(=O)O	Methyl-accepting chemotaxis protein Tlp3 (Campylobacter jejuni, UniProt Q0P864)	binding, ITC			1530 ± 82 µM
Nc1ccn([C@H]2C[C@H](O)[C@@H](COP(=O)(O)NP(=O)(O)OP(=O)(O)O)O2)c(=O)n1	DNA polymerase beta, with single-nucleotide gapped DNA (POLB, Homo sapiens, UniProt P06746)	NMR lineshape analysis		23 °C, binary polymerase-DNA complex with MgCl2	3.8 µM
CC(=O)N[C@@H](CC(C)C)C(=O)N[C@@H](CCCCN)C(=O)N[C@@H](CCCCN)C(=O)N[C@@H](CC(C)C)C(=O)N[C@@H](CC(C)C)C(=O)N[C@@H](CCCCN)C(=O)N[C@@H](CC(C)C)C(=O)N[C@@H](CC(C)C)C(=O)N[C@@H](CCCCN)C(=O)N[C@@H](CCCCN)C(=O)N[C@@H](CC(C)C)C(=O)N[C@@H](Cc1c[nH]c2ccccc12)C(=O)N[C@@H](CCCCN)C(=O)N[C@@H](CC(C)C)C(=O)N[C@@H](C)C(=O)NCC(N)=O	HIV-1 TAR hairpin RNA	competitive fluorescence anisotropy		pH 7.4, 20 °C, together with: rhodamine-Rev peptide	0.01 ± 0.001 µM
Oc1ccc(Br)cc1C=NCCN1CCOCC1	Albumin (ALB, Bos taurus, UniProt P02769)	binding, UV absorption titration		pH 7.2, 298 K	79.1 µM
NC(=O)c1ccc[n+]([C@@H]2O[C@H](COP(=O)([O-])OP(=O)(O)OC[C@H]3O[C@@H](n4cnc5c(N)ncnc54)[C@H](O)[C@@H]3O)[C@@H](O)[C@H]2O)c1	AKR1C3 (Homo sapiens, UniProt P42330, K104D)	tryptophan fluorescence titration		pH 7.0, 25 °C	410 ± 52 µM
Cn1c[n+]([C@@H]2O[C@H](COP(=O)(O)OP(=O)([O-])OP(=O)(O)OC[C@H]3O[C@@H](n4cnc5c(=O)[nH]c(N)nc54)[C@H](O)[C@@H]3O)[C@@H](O)[C@H]2O)c2nc(N)[nH]c(=O)c21	Eif4e	differential scanning fluorimetry			14 µM
OCc1ccc(-c2nn(Cc3ccccc3)c3ccccc23)o1	soluble guanylate cyclase beta subunit, N-terminal fragment (Manduca sexta, UniProt O77106)	binding, CO titration, global fit		1 µM protein, 1 cm cuvette	21 µM and ~20 µM
CC(=O)N[C@@H](CC(C)C)C(=O)N[C@@H](CCCCN)C(=O)N[C@@H](CCCCN)C(=O)N[C@@H](CC(C)C)C(=O)N[C@@H](CC(C)C)C(=O)N[C@@H](CCCCN)C(=O)N[C@@H](CC(C)C)C(=O)N[C@@H](CC(C)C)C(=O)N[C@@H](CCCCN)C(=O)N[C@@H](CCCCN)C(=O)N[C@@H](CC(C)C)C(=O)N[C@@H](CC(C)C)C(=O)N[C@@H](CCCCN)C(=O)N[C@@H](Cc1c[nH]c2ccccc12)C(=O)N[C@@H](C)C(=O)NCC(N)=O	HIV-1 RRE hairpin RNA	competitive fluorescence anisotropy		pH 7.4, 20 °C, together with: rhodamine-Rev peptide	0.018 ± 0.002 µM
CN1/C(=C/C=C/c2cc[n+](CCCS(=O)(=O)[O-])c3ccccc23)C(C)(C)c2ccccc21	scFv K7, soluble	fluorescence titration			0.0103 ± 0.0007 µM
Nc1ncnc2c1ncn2[C@@H]1O[C@H](COP(=O)(O)OP(=O)(O)OP(=O)(O)O)[C@@H](O)[C@H]1O	FGR (Homo sapiens, UniProt P09769)				2.6 µM
O=C(N/N=C/c1cccnc1)c1c(O)ccc2ccccc12	Ribonucleoside-diphosphate reductase large subunit	binding, fluorescence			16.3 µM
O=Cc1c(O)cccc1OCc1cccc(CO)n1	Hemoglobin subunit alpha, with beta chain (HBA1, Homo sapiens, UniProt P69905)	binding, cation-exchange HPLC-UV/Vis		kinetic Kd from koff/kon	100 µM
Nc1ncnc2c1ncn2-c1ccc(/C=N/NC(=O)c2ccccc2O)cc1	Ribonucleoside-diphosphate reductase large subunit	binding, fluorescence		pH 8	19.3 µM
CC1=C(/C=C/C(C)=C\C=C\C(C)=C\C=O)C(C)(C)CCC1	Retinol-binding protein 2 (Rbp2, Rattus norvegicus, UniProt P06768)	binding, fluorescence titration		pH 7.4, 25 °C	0.005 ± 0.003 µM
Cc1occc(=S)c1O	Carbonic anhydrase 2, Co(II)-substituted (CA2, Bos taurus, UniProt P00921)	binding, UV-vis titration		pH 7.5, deprotonated form	480 µM
CC(C)[C@H](N)C(=O)O	Methyl-accepting chemotaxis protein Tlp3 sensing domain	binding, thermal shift		25 °C, unfolding equilibrium constant, ITC enthalpy	372 ± 87 µM
CC(=O)N[C@@H](CC(C)C)C(=O)N[C@@H](CCCCN)C(=O)N[C@@H](CCCCN)C(=O)N[C@@H](CC(C)C)C(=O)N[C@@H](CC(C)C)C(=O)N[C@@H](CCCCN)C(=O)N[C@@H](CC(C)C)C(=O)N[C@@H](CC(C)C)C(=O)N[C@@H](CCCCN)C(=O)N[C@@H](CCCCN)C(=O)N[C@@H](Cc1c[nH]c2ccccc12)C(=O)N[C@@H](CC(C)C)C(=O)N[C@@H](CCCCN)C(=O)N[C@@H](CC(C)C)C(=O)N[C@@H](C)C(=O)NCC(N)=O	HIV-1 TAR hairpin RNA	competitive fluorescence anisotropy		pH 7.4, 20 °C, together with: rhodamine-Rev peptide	0.043 ± 0.007 µM
O=C(N/N=C/c1cc(-c2ccccc2)ccc1O)c1ccccc1O	Ribonucleoside-diphosphate reductase large subunit	binding, fluorescence		pH 8	36 µM

Molecule	target	test	test system	conditions	Kd
O=P(O)(O)OC1[C@H](O)[C@H](OP(=O)(O)O)C(OP(=O)(O)O)[C@H](OP(=O)(O)O)[C@H]1O (stereo partly shown)	3-phosphoinositide-dependent protein kinase 1, PH domain (PDPK1, Homo sapiens, UniProt O15530)	binding, FRET competition			0.11 ± 0.02 µM
c1ccc2nc3ccccc3cc2c1	HIV-1 nucleocapsid-SL4 RNA complex	binding, ESI-FTMS		pH 7.5	46.1 ± 3.4 µM
[I-].[K+]	SLC4A1 (Homo sapiens, UniProt P02730)	Cl- exchange, inhibitor, 36Cl flux, two-site model	erythrocytes	both sites protonated	810 µM
CC(=O)N[C@@H](CC(C)C)C(=O)N[C@@H](CCCCN)C(=O)N[C@@H](CCCCN)C(=O)N[C@@H](Cc1c[nH]c2ccccc12)C(=O)N[C@@H](CC(C)C)C(=O)N[C@@H](CCCCN)C(=O)N[C@@H](CC(C)C)C(=O)N[C@@H](CC(C)C)C(=O)N[C@@H](CCCCN)C(=O)N[C@@H](CCCCN)C(=O)N[C@@H](CC(C)C)C(=O)N[C@@H](CC(C)C)C(=O)N[C@@H](CCCCN)C(=O)N[C@@H](CC(C)C)C(=O)N[C@@H](C)C(=O)NCC(N)=O	HIV-1 RRE hairpin RNA	competitive fluorescence anisotropy		pH 7.4, 20 °C, together with: rhodamine-Rev peptide	0.0059 ± 0.0004 µM
COc1ccc(-c2ccoc2)c(/C=N/NC(=O)c2ccccc2O)c1O	Ribonucleoside-diphosphate reductase large subunit	binding, fluorescence			9.3 µM
O=S(=O)(O)c1ccc2c(ccc3nn(-c4ccc(/C=C/c5ccc(-n6nc7ccc8cc(S(=O)(=O)O)ccc8c7n6)cc5S(=O)(=O)O)c(S(=O)(=O)O)c4)nc32)c1	UBC (Homo sapiens, UniProt P0CG48)	binding, NMR titration			11.4 ± 2.2 µM
YGAQLDRYAQDF	BCL2L1	yeast display titration	peptide	2 h, pH 8.0, room temperature	0.0039 ± 0.0009 µM
Nc1ncnc2c1ncn2[C@@H]1O[C@H](COP(=O)(O)OP(=O)(O)NP(=O)(O)O)[C@@H](O)[C@H]1O	Heat shock 70 kDa protein 1A, non-phosphorylated (HSPA1A, Homo sapiens, UniProt P0DMV8)	binding, isothermal titration calorimetry		pH 7.5, Mg2+ free	9 µM
O=C1Nc2ccccc2/C1=N/NC(=O)c1ccccc1O	Ribonucleoside-diphosphate reductase large subunit	binding, fluorescence		pH 8	15 µM
O=c1c(O)c(-c2ccc(O)cc2)oc2cc(O)cc(O)c12	chemokine CCL2, human and mouse	fluorescence quenching		summary over orthologs and variants	25 µM
VGAQFHRFANDF	BCL2L1	yeast display titration	peptide	2 h, pH 8.0, room temperature	0.016 ± 0.004 µM
N=C(N)NCCC[C@H](NC(=O)c1ccc2c(c1)C(=O)OC21c2ccc(O)cc2Oc2cc(O)ccc21)C(=O)N[C@@H](CO)C(=O)N[C@@H](CCCNC(=N)N)C(=O)N[C@@H](CO)C(=O)N[C@@H](CCCNC(=N)N)C(=O)N[C@@H](CO)C(=O)N[C@@H](CCCNC(=N)N)C(=O)N[C@@H](CO)C(=O)N[C@@H](CCCNC(=N)N)C(=O)N[C@@H](CO)C(=O)N[C@@H](CCCNC(=N)N)C(=O)N[C@@H](CO)C(=O)N[C@@H](CCCNC(=N)N)C(=O)N[C@@H](CO)C(=O)N[C@@H](CCCNC(=N)N)C(=O)N[C@@H](CO)C(=O)O	SRPK1 ΔN	peptide binding, fluorescence		together with: fluorescein-labelled Arg-Ser peptide	0.36 ± 0.08 µM
CC(C)C[C@H](N)C(=O)O	Methyl-accepting chemotaxis protein Tlp3 sensing domain	binding, thermal shift zero heat capacity		at Tm sensing domain	875 ± 152 µM
CC[C@H]1OC(=O)[C@H](C)[C@@H](O[C@H]2C[C@@](C)(OC)[C@@H](O)[C@H](C)O2)[C@H](C)[C@@H](O[C@@H]2O[C@H](C)C[C@H](N(C)C)[C@H]2O)[C@](C)(O)C[C@@H](C)[C@@H]2N[C@@H](COCCOC)O[C@H]([C@H]2C)[C@]1(C)O	Thermus thermophilus 70S ribosome	binding, fluorescence anisotropy competition		25 °C, together with: BODIPY-erythromycin	0.005 ± 0.001 µM
C[C@H](N)C(=O)N[C@@H](CCCNC(=N)N)C(=O)N[C@H](C(=O)N[C@@H](CCCCN)C(=O)N[C@@H](CCC(N)=O)C(=O)N[C@H](C(=O)N[C@@H](C)C(=O)N[C@@H](CCCNC(=N)N)C(=O)N[C@@H](CCCCN)C(=O)N[C@@H](CO)C(=O)N[C@H](C(=O)NCC(=O)O)[C@@H](C)O)[C@@H](C)O)[C@@H](C)O	Baculoviral IAP repeat-containing protein 5.1-A (birc5.1-a, Xenopus laevis, UniProt Q8JGN5)	ITC		pH 7.8, 25 °C	73.9 ± 12.2 µM
AAQELRRYGDEY	BCL2L1	yeast display titration	peptide	2 h, pH 8.0, room temperature	0.004 ± 0.002 µM
CC(=O)[C@H]1CC[C@H]2[C@@H]3CCC4=CC(=O)CC[C@]4(C)[C@H]3CC[C@]12C	Cytochrome P450 3A4 (CYP3A4, Homo sapiens, UniProt P08684, S18F)		POPC Nanodiscs	pH 7.4, 37 °C, second binding step	14 µM
CC(C)CCC[C@@H](C)[C@H]1CC[C@H]2[C@@H]3CC=C4C[C@@H](O)CC[C@]4(C)[C@H]3CC[C@]12C	Eif4e	cap analogue binding, pyrene fluorescence competition		20 °C	0.94 µM

Some of these lines once more:
Molecule	target	test	test system	conditions	Kd
YGAQLDRYAQDF	BCL2L1	yeast display titration	peptide	2 h, pH 8.0, room temperature	0.0039 ± 0.0009 µM
N=C(N)NCCC[C@H](NC(=O)c1ccc2c(c1)C(=O)OC21c2ccc(O)cc2Oc2cc(O)ccc21)C(=O)N[C@@H](CO)C(=O)N[C@@H](CCCNC(=N)N)C(=O)N[C@@H](CO)C(=O)N[C@@H](CCCNC(=N)N)C(=O)N[C@@H](CO)C(=O)N[C@@H](CCCNC(=N)N)C(=O)N[C@@H](CO)C(=O)N[C@@H](CCCNC(=N)N)C(=O)N[C@@H](CO)C(=O)N[C@@H](CCCNC(=N)N)C(=O)N[C@@H](CO)C(=O)N[C@@H](CCCNC(=N)N)C(=O)N[C@@H](CO)C(=O)N[C@@H](CCCNC(=N)N)C(=O)N[C@@H](CO)C(=O)O	SRPK1 ΔN	peptide binding, fluorescence		together with: fluorescein-labelled Arg-Ser peptide	0.36 ± 0.08 µM
Oc1ccc(Br)cc1C=NCCN1CCOCC1	Albumin (ALB, Bos taurus, UniProt P02769)	binding, UV absorption titration		pH 7.2, 298 K	79.1 µM
